Results collected from several papers.
Parts stem from different laboratories: compare values within a part only.

Set 1 — method: RNA Bind-n-Seq; molecule type: RNA; sample: in vitro; concentration: 365 nM; relative to: no-protein control; reading: higher = stronger binding
Target: RNA binding protein fox-1 homolog 2, RRM domain, GST-SBP tag (RBFOX2, Homo sapiens, UniProt O43251-10, residues 100-194)
Setting: natural RNA segment, single round, ends assumed
Shared flanks, not repeated: GGGAGUUCUACAGUCCGACGAUC … UGGAAUUCUCGGGUGCCAA
Target sequence (chain): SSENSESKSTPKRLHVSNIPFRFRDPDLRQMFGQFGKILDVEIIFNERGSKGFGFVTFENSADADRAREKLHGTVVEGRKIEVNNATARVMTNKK
| Oligonucleotide | RBNS enrichment (R) |
| --- | --- |
| GAUAUGCCAAUAUUUGCUUUAAAUAUCAUAUCACUGUAUCUUCUCAGUCAUUUCUGAAUCUUUCCACAUUAUAUUAUAAAAUAUGGAAAUGUCAGUUUAUCUCCCCUCCU | 0.257 |
| CGGUGCCCCUCCCCAUCUCCCCGUGCCUGUAUCUAAUAUAUAAAUAUAGAGAUGUGUAUAUGGAUGAGCCUGCCUCUGUCUGUGUAUGUCGACGCGACCCCAGCAUACCG | 0.604 |
| UUGGUGAUUCUCCUCAAGUACUAGCUGCCUAAGCUACAGAGGGCACUGGCCUGCUCCUACAGAAGGAAGCAAUCAUAGCUUCUAUUGUUUUAAACAAAACAACAGGAAGA | 0.219 |
| UCCAGGUUACAAAGUUCUCCUCAUAGGUGGAAAGGUUUACUGCAGUGUUAUCCUCUAAGUGUGAUAAACUGUGCUUUACCGCUCCGAACACUCAGGACUCCGUGUGUAUC | 0.321 |
| CAGUAUUCAGGAAUAUGUGAUUUUAGGAGUUUCUGAUCCUGUGUGUCAGAAUGGCACUAGUUCAGUUUAUGUCCCUUCUGAUAUAGUAGCUUAUUUGACAGCUUUGCUCU | 0.358 |
| AGGAAGGUCUGAUUUGCAGGAUUUUUAGAGCAUUAAAAUAACUAUCAGGCAGAAGAAUCUUUCUUCUCGCCUAGGAUUUCAGCCAUGCGCGCGCUCUCUCUCUUUCUCUC | 0.408 |
| AGUAGUGAGUGGACAGAUGGAAGAAGCACCGUGUCAUUUGCCAGAGUACAAAGACACGAUUACAUAACCAGGUUCAAGGGGGACUUCUGCUUAUCAGUGCUAGGGAUGGG | 0.712 |
| CCUCCAAAAGACUCCUUGCAUUAGGUGAUCCAGGAGCCCUGUCACUAAGCCCCUGCCCCUGAGCUCCAGAGCUGUGUGUUUGGGCAAGGAUGGGCGGGGAUUGGCCGGGG | 0.361 |
| GAACUGUCUGUGCCAGUGAGCGCCAAGGAGAAGGAAAACCUGCCUUAGCCCGAGGGUAGAAGUUGAUGUCAUGUCAGAUAGUUGGUGAAGACCUUUCUAGGGGGCCUGGU | 0.463 |

Set 2 — method: RNA Bind-n-Seq; molecule type: RNA; sample: in vitro; concentration: not given; relative to: input RNA pool; reading: higher = stronger binding
Target: RING finger protein unkempt homolog, zinc fingers 1-6, GST-SBP tag (UNK, Homo sapiens, UniProt Q9C0B0, residues 30-357)
Setting: RNA with constant flanks, human-mouse chimeric sites, ends assumed
Shared flanks, not repeated: GGGAGUUCUACAGUCCGACGAUC … CAACAGAGGAUUGAGCAUCA
Construct (chain): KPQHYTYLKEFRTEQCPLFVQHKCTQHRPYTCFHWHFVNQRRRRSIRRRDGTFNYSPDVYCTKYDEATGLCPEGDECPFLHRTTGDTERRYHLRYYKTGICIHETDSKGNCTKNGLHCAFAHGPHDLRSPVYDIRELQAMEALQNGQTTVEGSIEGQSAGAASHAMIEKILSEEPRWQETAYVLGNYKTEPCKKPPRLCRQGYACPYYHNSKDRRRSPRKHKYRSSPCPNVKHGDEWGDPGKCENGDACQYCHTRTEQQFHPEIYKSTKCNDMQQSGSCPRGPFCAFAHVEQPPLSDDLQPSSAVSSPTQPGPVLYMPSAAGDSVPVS
| Oligonucleotide | bound/input enrichment [ratio] |
| --- | --- |
| GGAAGUACAAUGAUGGAGAUUGAUGGUGACAAAGGCAAGCAGGGCGGUCCCACCUACUACAUAGACACCAAUGCCCUGCGUGUUCCGAGGGAGAACAUGGAGGCCAUCUCACCACUCAAG | 0.239 |
| AGGAGGAGGUUAAAGGGUGAGAGUGGGGUGGAAGACUGUGUCAUGGCUCUGGAGACACUGUUCAGUGUUCUGCUUUCUCUUUGCAGACUGAUGGCCCCUUACACGCCCUUUCUGACUGAG | 0.0831 |
| AUGGAAAAGGAUUCUCUGCCCCGCUUUGUGCGCUCUGAAUUUUAUAAGGAGCUAAUCAAGUAGUCAUCUGGUCAGGCUAUGAAAUCAUGCCCUGUGAGUUGAGUUACAUCCUUUGUAGCA | 0.29 |
| AUAAAAGCUAUGUUGAGUGGUCCAGGUCAGUUUGCUGAGAACGAAACCAACGAGGUCAAUUUUAGAGAGAUCCCCUCACAUGUGCUAUCAAAAGUGUGCAUGUAUUUUACCUACAAGGUC | 0.185 |
| AGAUUCCCCCUCCUGAGACCUCCUCCGAAGUUGGAGUCUCUUACAGAUGCCUCAUCCCCUGUUAGCGUUUUAGUUUGGACCACACAACCUUGGACAAUUCCAGCCAACCAGGCAAUUUGC | 2.16 |
| AAAGUGAUGACUAUGUUUGUACAGCGACAGGUAUUUUCGGAGAGCAAAGAUGAGAUUGCGUUAGUCCUCUAUGGCACAGAUGGCACUGAUAAUGCCCUUUCUGGUGGGGACCAGUAUCAG | 0.306 |
| GGUGGGGUGGUCAUUGCGCCAAUUGAGGCUGAUUUUCAUGAGUCGCCUUCAAAACUCUCGUGUAGGGUUGACAAUGUGGGGGGGUGGGAAAUCUAGCUUAUUCUUUUAUUUUCAAGUCCA | 3.99 |
| AACAGAUUGUCUUUAAGCAUUCCAAGCGAGAAUGCUGAAAUAGUCAUAAUUACCCACGUGCCUUCUGACUGAGCUUUAAUGCUGUUCCAUGUUACAUCUUUCCUUCACUCCAGAAUUGUU | 0.622 |
| GCUCUUGGGAAUGUAAUCAGCGCCUUGGGGGACAAGAGCAAGAGGGCCACCCAUGUCCCUUACAGAGACUCUAAGCUAACAAGACUAUUGCAGGAUUCCCUUGGGGGUAACAGCCAAACC | 0.155 |
| UCCCUGUUGCUGAAUAAAUGGCUUGUAAAGAAGUUUUUCCAAGCUGUAACCCAUGCUGUUAUUAUAGUUGCUGCAAAAUGUUCUUCCUAUUGAUGUUUUUAUUUGUUAACUGAAGGUCUC | 0.569 |
| UCUUAACUUAUUCAUUUAACUUAUUUUUAGCACUUAGGCAAUAUUGUUAGUCUUAGACAAUAGCUCACAUUUUUUGAGAAGCAUGCCCUCCCUGUCCAUUUGUCUUAUAACAUGACCCAG | 411 |

Set 3 — method: protein binding microarray; molecule type: double-stranded DNA, one strand shown; sample: in vitro; concentration: not given; relative to: not given; reading: higher = stronger binding
Target: Histone acetyltransferase KAT6A, both winged helices, GST fusion (KAT6A, Homo sapiens, UniProt Q92794, residues 1-181)
Setting: 8-mer, flanks averaged, mean of 2 arrays, mostly near background
Residues (chain): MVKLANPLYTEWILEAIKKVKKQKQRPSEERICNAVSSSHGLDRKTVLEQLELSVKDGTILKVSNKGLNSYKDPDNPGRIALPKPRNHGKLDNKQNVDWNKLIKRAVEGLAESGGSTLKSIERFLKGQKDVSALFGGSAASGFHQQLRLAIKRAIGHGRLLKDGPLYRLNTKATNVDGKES
| Oligonucleotide | E-score |
| --- | --- |
| CGTGATGC | 0.119 |
| AGTCGATC | -0.088 |
| CTCCCAAA | -0.165 |
| CATCGAGA | -0.145 |
| CTATGGAG | -0.16 |
| AACATATT | -0.0142 |
| CAGCTTAG | -0.0404 |
| AAAGTTCG | -0.112 |
| GCCCAACA | -0.057 |
| GGACAAAC | -0.00848 |
| CAAGGCGC | 0.291 |
| CGTGGACA | 0.123 |
| AGTAGGGC | -0.0755 |
| ATACGTCG | 0.0601 |
| ACTCATAG | -0.181 |
| AAGAGAGC | -0.0495 |
| CCTCGCCA | -0.064 |
| CTTGGCAC | -0.151 |
| CTGGTGTA | -0.175 |
| ATCTGCAG | -0.0953 |
| GCTACGTA | 0.0529 |
| CGATTACA | 0.0395 |
| AACTATAC | -0.0447 |

Set 4 — method: competition protein-binding microarray; molecule type: double-stranded DNA, one strand shown; sample: in vitro; concentration: 2 µM; together with: Cbf1 competitor, 0.05 µM; reading: higher = stronger binding; shared flanks, not repeated: … GTCTTGATTCGCTTGACGCTGCTG
Target: Phosphate system positive regulatory protein PHO4, full length, GST-tagged (PHO4, Saccharomyces cerevisiae, UniProt P07270, residues 1-312)
UniProt P07270, sequence (whole entry, looked up): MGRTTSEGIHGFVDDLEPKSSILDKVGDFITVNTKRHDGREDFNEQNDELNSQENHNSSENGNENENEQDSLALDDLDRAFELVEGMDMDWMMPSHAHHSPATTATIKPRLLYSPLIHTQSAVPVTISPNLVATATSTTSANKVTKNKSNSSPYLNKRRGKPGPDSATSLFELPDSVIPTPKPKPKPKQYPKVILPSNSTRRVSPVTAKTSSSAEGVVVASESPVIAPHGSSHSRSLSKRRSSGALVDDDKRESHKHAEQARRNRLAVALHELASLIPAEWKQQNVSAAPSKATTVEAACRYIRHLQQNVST
Setting: whole 60-bp probe, lowest competitor level
| Oligonucleotide | fluorescence intensity [a.u.] |
| --- | --- |
| CTTTCCCGATCTTGTGTCGTGGGTGTAGCACATTTG | 7070 |
| AAAGCGGTAATTTGTCGGGTGGGTGCAGATATCTAT | 4570 |
| CGGGGTTAAGTTTGACAAGTGGGTGGCTTGCAGCAG | 4710 |
| AAAGCGGTAATTTGTCGCGTGGGTGCAGATATCTAT | 9820 |
| CCAACAAACCTTTCACACGTGGTCGGATTCAAGTTC | 16900 |
| GGTGCGAAGTATCACCACGTTTCTTTTTCATCTCTT | 13500 |
| CGCTACCAGAAACGATGCGTGCAAAGACCAGTGTTT | 8480 |
| CGTCCTAGTGATTGTTAAGTGGGTGCCATGAGGAAG | 6200 |
| GTCTTGTCTCATTGTCATGTGGGTGTCCCCACTTCA | 9240 |
| CTAACGAAGGTTTGATATGTGGGTGACAAGCCAAGT | 4220 |
| TTCCAGAAATTGGTGTTTGTGATGCTTGATGCTCTC | 3780 |
| CCAAAGCAGATTTGTCACCTGGAATAGAGTTTTTGT | 3040 |
| TTTCTCTCTTCAAGTGACCTGACAGGGCCACAGTGG | 3390 |
| AAAGCGGTAATTTGTAGTGTGGGTGCAGATATCTAT | 5740 |
| TTTAGGTACAACATACTCGTGTGTTGCTCACTTTGC | 7950 |
| TTAGCTAATTTATCCCTCGTGGAATCTTGGAAGGAA | 9370 |
| ATTCCTACTTTCCGTCACGTGGGACGCCCGTTTAGG | 14300 |
| CTTTCCCGATCTTGACAGGTGGGTGTAGCACATTTG | 6300 |
| TTCGAAAAAAATACCCACGTGCTTTTTGGAAATGAA | 21400 |
| GTCTTGTCTCATTTTCACGTGAAGTTCCCCACTTCA | 8850 |
| GACAAATTAGATAATGAAAAAGATATGGGGTGGAAG | 3410 |
| AATATTATTAAAAATTGCCGCTGTCATACTGTACGA | 3570 |
| CGACACCGATAGCGTCATGTGTAGCAACCCAAATAA | 6100 |
| ATTGCATTCTTAAAACACGTGCTTTACCAGTGGGAA | 21300 |
| TCAAGCAGAAGAAAGCACGTGGCCGAACGCTTACCT | 16600 |

Excerpt of the above (set 1):
| Oligonucleotide | RBNS enrichment (R) |
| --- | --- |
| AGGAAGGUCUGAUUUGCAGGAUUUUUAGAGCAUUAAAAUAACUAUCAGGCAGAAGAAUCUUUCUUCUCGCCUAGGAUUUCAGCCAUGCGCGCGCUCUCUCUCUUUCUCUC | 0.408 |
| AGUAGUGAGUGGACAGAUGGAAGAAGCACCGUGUCAUUUGCCAGAGUACAAAGACACGAUUACAUAACCAGGUUCAAGGGGGACUUCUGCUUAUCAGUGCUAGGGAUGGG | 0.712 |
| CCUCCAAAAGACUCCUUGCAUUAGGUGAUCCAGGAGCCCUGUCACUAAGCCCCUGCCCCUGAGCUCCAGAGCUGUGUGUUUGGGCAAGGAUGGGCGGGGAUUGGCCGGGG | 0.361 |
| GAACUGUCUGUGCCAGUGAGCGCCAAGGAGAAGGAAAACCUGCCUUAGCCCGAGGGUAGAAGUUGAUGUCAUGUCAGAUAGUUGGUGAAGACCUUUCUAGGGGGCCUGGU | 0.463 |
